Assay results collected from several papers.
Numbered parts are unrelated; each lists some results of a single study. Changes are numbered by the printed parent chain.

Sample 1 — technique: RNA Bind-n-Seq; molecule type: RNA; matrix: in vitro; tested at: 1 µM; notes: whole 134-nt RNA, ends assumed; added: 150 mM KCl; relative to: input library; direction: higher = stronger binding
Target: Ras GTPase-activating protein-binding protein 1, RRM domain (G3BP1, Homo sapiens, UniProt Q13283)
UniProt Q13283, sequence (whole entry, looked up): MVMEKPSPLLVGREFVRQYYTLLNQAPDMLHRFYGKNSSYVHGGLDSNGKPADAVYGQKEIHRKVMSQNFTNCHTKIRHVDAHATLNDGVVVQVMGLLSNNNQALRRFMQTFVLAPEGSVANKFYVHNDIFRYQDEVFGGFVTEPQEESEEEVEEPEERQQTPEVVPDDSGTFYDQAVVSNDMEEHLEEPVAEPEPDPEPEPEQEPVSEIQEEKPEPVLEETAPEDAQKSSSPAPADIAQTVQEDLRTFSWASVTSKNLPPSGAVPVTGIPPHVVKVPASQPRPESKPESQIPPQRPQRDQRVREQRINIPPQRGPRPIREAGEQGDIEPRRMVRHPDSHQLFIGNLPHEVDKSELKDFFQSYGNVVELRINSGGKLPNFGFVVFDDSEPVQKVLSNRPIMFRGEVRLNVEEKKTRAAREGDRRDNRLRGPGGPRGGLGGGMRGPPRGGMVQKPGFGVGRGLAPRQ
`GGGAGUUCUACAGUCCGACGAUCCUGUGCUACACAUCGUAUGUACCGAAUCGGGCCCCCCGGGGCCCCCCGGGGCCCCCCGGGGAAAGUAUUAUGUUACGCCGUUCGGAUCUGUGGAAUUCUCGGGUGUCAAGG` gave a log2 enrichment of -0.662.
The log2 enrichment of `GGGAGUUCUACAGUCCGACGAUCAAGUCCUGUGCUACACAUCGUAUGUACCGAAUCGGUUUUGGGGUUUUGGUUUUGGGAAAGUAUUAUGUUACGCCGUUCGGAUCUGCACUUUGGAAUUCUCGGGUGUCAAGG` is reported as -0.197.
`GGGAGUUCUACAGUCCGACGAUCUUCUUGCCUAUGCUGUGCGCCACACCAUCCAGGUGUACCGGCUCUCCAAGUACAACACGGAAGAAUUCAUCACAGUCUACCCCACCGACCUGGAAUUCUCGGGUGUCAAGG` gave a log2 enrichment of 0.097.
`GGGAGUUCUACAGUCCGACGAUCUUCACUCUUUGAAGGAACGUGGUACUUAGUUAGGGUGGAUGAAAAGCACAGAAGAACUUACGCUCGGCGUCCCACUCCAAAUGAUGACACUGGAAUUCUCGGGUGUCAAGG` gave a log2 enrichment of 0.0706.
The log2 enrichment of `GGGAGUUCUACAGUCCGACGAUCUAACUUUAGAGGAGGAUCUGAUGGAUAUGGCAGUGGACGUGGAUUUGGGGAUGGCUAUAAUGGGUAUGGAGUAGGACCUGGAGGUGGCAAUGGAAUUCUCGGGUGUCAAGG` is reported as -0.23.
For `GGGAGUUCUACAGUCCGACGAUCUCCUGUGCUACACAUCGUAUGUACCGAAUCGGUUUUUUGGUUUUUUGGGGUUUUUUGGGAAAGUAUUAUGUUACGCCGUUCGGAUCUGCAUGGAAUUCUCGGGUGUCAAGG`, the log2 enrichment was -0.245.
`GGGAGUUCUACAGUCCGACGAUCCCUGUGCUACACAUCGUAUGUACCGAAUCGGGGAAAGGGGUUUUUUUGGGGUUUUUGGGGAAAGUAUUAUGUUACGCCGUUCGGAUCUGCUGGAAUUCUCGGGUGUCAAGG` has a log2 enrichment of 0.732.
With `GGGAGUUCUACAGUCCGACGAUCUCAAGUCCUGUGCUACACAUCGUAUGUACCGAAUCGGAGGUUUUUGGAAAAAGGAAAGUAUUAUGUUACGCCGUUCGGAUCUGCACUUCCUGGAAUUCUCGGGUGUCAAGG` the log2 enrichment was -0.247.
`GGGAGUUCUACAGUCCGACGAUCCCUCACCACUCCUUUCUCUUUCAUUCAGUUCCGCUCAGUGGACGAGACUACCCAGGCUAUGGCCUUUGAUGGCAUCAUCUUCCAGGGCCAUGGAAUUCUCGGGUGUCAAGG` has a log2 enrichment of -0.102.
`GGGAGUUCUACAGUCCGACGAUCAGUAGCUAUGGUCAACAAAGCAGCUAUGGGCAGCAGCCUCCCACUAGUUACCCACCCCAAACUGGAUCCUACAGCCAAGCUCCAAGUCAAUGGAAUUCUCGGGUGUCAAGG` has a log2 enrichment of 0.208.
`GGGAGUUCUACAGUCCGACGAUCUGGGAGGUAGAUUUUGUUUAUUUUUUUAGCUCAUUUCCAGGGGUGGGAAUUUUUUUUUAAUAUGUGUCAUGAAUAAAGUUGUUUUUGAAAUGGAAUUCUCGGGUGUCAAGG` gave a log2 enrichment of 1.73.
The log2 enrichment of `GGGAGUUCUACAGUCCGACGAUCCAAAAACAACACGCACCCACACAGACACAGAGGGAAGGGGUUGGGAUGGGGACAGGGUGCACAGCAGGGCGGGGUAGGACCCCAGCCCCUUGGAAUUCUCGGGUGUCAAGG` is reported as -0.249.
With `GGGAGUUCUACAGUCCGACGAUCCAAGUCCUGUGCUACACAUCGUAUGUACCGAAUCGGGUUUGGGAAAAAGGGAGGGAAAGUAUUAUGUUACGCCGUUCGGAUCUGCACUUCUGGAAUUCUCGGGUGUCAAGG` the log2 enrichment was 0.919.
`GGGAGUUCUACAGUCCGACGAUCGCAGGAAGUAAAAACAAAUGGAAAUGCUUCGGAUAGUGGCAGGGGUGGGGGUUGCUAAGGAAAUGGUGGGAUGGGAGUGGGUAAAGAGUUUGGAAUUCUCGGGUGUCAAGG` gave a log2 enrichment of 1.35.

Sample 2 — technique: protein-binding microarray; molecule type: double-stranded DNA, one strand shown; matrix: in vitro; tested at: not given; direction: higher = stronger binding
Target: Protein C-ets-1 (ETS1, Homo sapiens, UniProt P14921, residues 1-441, full length assumed)
Notes: k-mer, scored over probes, only values ≥0.25
Residues (chain): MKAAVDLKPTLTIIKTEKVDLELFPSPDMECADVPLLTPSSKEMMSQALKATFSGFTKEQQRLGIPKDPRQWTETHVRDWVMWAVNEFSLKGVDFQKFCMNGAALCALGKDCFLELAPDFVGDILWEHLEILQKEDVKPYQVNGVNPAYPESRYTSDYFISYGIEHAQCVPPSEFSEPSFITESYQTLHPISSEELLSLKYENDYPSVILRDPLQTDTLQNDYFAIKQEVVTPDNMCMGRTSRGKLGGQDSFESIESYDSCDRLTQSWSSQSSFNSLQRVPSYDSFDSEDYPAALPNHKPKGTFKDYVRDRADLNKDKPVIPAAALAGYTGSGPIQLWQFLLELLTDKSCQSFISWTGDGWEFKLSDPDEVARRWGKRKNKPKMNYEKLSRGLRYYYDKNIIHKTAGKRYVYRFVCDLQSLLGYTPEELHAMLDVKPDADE
The E-score of `AGGATACG` is reported as 0.36.
With `CTTCTTCC` the E-score was 0.333.
With `GGAAAGCA` the E-score was 0.253.
With `ATAGGAAG` the E-score was 0.368.
`AGGGAAAC` gave an E-score of 0.346.
With `GATGTTGA` the E-score was 0.279.
`ATTTCCAC` has an E-score of 0.285.
`GTCCCGGA` gave an E-score of 0.377.
The E-score of `CCCCGGAA` is reported as 0.469.
The E-score of `CAGGATGA` is reported as 0.395.
`CGATAGGA` has an E-score of 0.258.
`CGGACGCA` has an E-score of 0.385.
`TCCGGCAA` has an E-score of 0.386.
The E-score of `GACCCGGA` is reported as 0.324.
With `GGATGCCC` the E-score was 0.394.
For `AATCCGGC`, the E-score was 0.344.

Sample 3 — target: CCNF, cyclin fold, Cln2 fusion (human); technique: yeast growth competition, sequencing; matrix: yeast; notes: strong parent motif; relative to: not given; direction: higher = stronger binding
Parent: SAMHD1 docking peptide (human); ASKSRVQLFKDDP; partner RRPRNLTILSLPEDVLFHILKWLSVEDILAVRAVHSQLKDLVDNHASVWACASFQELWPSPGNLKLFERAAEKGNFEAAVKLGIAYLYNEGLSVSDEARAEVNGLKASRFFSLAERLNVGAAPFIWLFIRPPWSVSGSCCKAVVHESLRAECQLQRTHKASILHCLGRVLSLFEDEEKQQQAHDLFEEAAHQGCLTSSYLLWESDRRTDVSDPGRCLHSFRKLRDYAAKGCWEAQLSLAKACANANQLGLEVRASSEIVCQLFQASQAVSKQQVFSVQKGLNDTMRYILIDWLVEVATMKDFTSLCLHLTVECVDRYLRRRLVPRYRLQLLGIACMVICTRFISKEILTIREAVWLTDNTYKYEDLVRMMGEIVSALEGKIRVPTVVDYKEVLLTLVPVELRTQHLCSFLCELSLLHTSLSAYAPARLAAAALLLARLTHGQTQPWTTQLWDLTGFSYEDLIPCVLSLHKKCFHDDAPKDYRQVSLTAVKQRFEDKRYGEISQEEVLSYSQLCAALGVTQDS
Under “normalised enrichment score”, `K3T` is recorded as 0.95.
`L8A` — result for “normalised enrichment score”: -0.0746.
`F9C` — result for “normalised enrichment score”: -0.209.
`S4I` — result for “normalised enrichment score”: 5.68.
Under “normalised enrichment score”, `S2K` is recorded as 1.06.
Under “normalised enrichment score”, `V6K` is recorded as 2.64.
`F9S`: “normalised enrichment score” -0.14.
`R5C` — result for “normalised enrichment score”: 1.29.
`K3D`: “normalised enrichment score” 0.263.
`S2R` — result for “normalised enrichment score”: 1.12.
`R5D` — result for “normalised enrichment score”: -0.501.
Under “normalised enrichment score”, `V6P` is recorded as -0.194.
Under “normalised enrichment score”, `S2P` is recorded as 1.44.
`F9V` — result for “normalised enrichment score”: -0.074.
`S4M`: “normalised enrichment score” 1.39.
`D11K` — result for “normalised enrichment score”: 0.768.
For `S2Y`, “normalised enrichment score” read 2.06.
For `K10S`, “normalised enrichment score” read 0.799.

Single results of other studies
With `PhoQ, residues 284 288 289 292 302 303 SIHMAM` the fold induction was 2.44 (PhoP, residues 12 14 15 18 19 ICWRQ (Escherichia coli, UniProt P23836); Sort-seq, measured: YFP reporter; E. coli; PhoQ-PhoP variant library, added: 10 µM Mg2+; relative to: high Mg2+ state, higher = stronger signaling).
